Published values from different studies.
Each numbered part is a random draw from the data of one study; scales do not carry over between parts.

Set 1 — method: protein-binding microarray; molecule type: hairpin DNA; matrix: in vitro; concentration: not given; relative to: not given; direction: higher = stronger binding
Target: Interferon regulatory factor 1, DNA-binding domain (IRF1, Homo sapiens, UniProt P10914, residues 1-114)
Notes: whole hairpin DNA, median over replicate spots
Target sequence (chain): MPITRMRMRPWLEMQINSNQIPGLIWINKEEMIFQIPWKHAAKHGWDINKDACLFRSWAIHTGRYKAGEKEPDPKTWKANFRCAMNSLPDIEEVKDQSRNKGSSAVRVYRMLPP
| Sequence | median fluorescence [a.u.] |
| --- | --- |
| GAGGCCCGACGGTGAAACGCCTCCTGGCGTTTCACCGTCGGGCCTCACAC (5mC at 10 36) | 557 |
| GAGGCCCGAAAGCGGAACGCCTCCTGGCGTTCCGCTTTCGGGCCTCACAC | 536 |
| GAGGCCCGAAACCGAAACGCCTCCTGGCGTTTCGGTTTCGGGCCTCACAC (5mC at 12) | 2100 |
| GAGGCCCGCGAGTGAAACGCCTCCTGGCGTTTCACTCGCGGGCCTCACAC (5mC at 9 37) | 522 |
| GAGGCCCGCAAGCGAAACGCCTCCTGGCGTTTCGCTTGCGGGCCTCACAC | 576 |
| GAGGCCCGAACGTGAAACGCCTCCTGGCGTTTCACGTTCGGGCCTCACAC (5mC at 35) | 498 |
| GAGGCCCGAAAGCGAAAGGCCTCCTGGCCTTTCGCTTTCGGGCCTCACAC | 1760 |
| GAGGCCCGAAAGCGAAACGCCTCCTGGCGTTTCGCTTTCGGGCCTCACAC (5mC at 7) | 1570 |
| GAGGCCCGAAACCGAAACGCCTCCTGGCGTTTCGGTTTCGGGCCTCACAC | 1630 |
| GAGGCCCGAAAGTCAAACGCCTCCTGGCGTTTGACTTTCGGGCCTCACAC | 527 |
| GAGGCCGGAAAGTGAAACGCCTCCTGGCGTTTCACTTTCCGGCCTCACAC (5mC at 40) | 1280 |
| GAGGCCCGAAAGTGAGACGCCTCCTGGCGTCTCACTTTCGGGCCTCACAC | 519 |
| GAGGCCCGAAAGCGAAAGGCCTCCTGGCCTTTCGCTTTCGGGCCTCACAC (5mC at 29) | 959 |
| GAGGCCCGGAAGTGAAACGCCTCCTGGCGTTTCACTTCCGGGCCTCACAC | 793 |
| GAGGCCCGAAAGCGTAACGCCTCCTGGCGTTACGCTTTCGGGCCTCACAC | 530 |
| GAGGCCCGAAAGTGAAGCGCCTCCTGGCGCTTCACTTTCGGGCCTCACAC (5mC at 30) | 570 |
| GAGGCCCGAAAGTGAAACGCCTCCTGGCGTTTCACTTTCGGGCCTCACAC | 2230 |
| GAGGCCCGGAAGCGAAACGCCTCCTGGCGTTTCGCTTCCGGGCCTCACAC | 654 |
| GAGGCCGGAAAGCGAAACGCCTCCTGGCGTTTCGCTTTCCGGCCTCACAC | 1390 |
| GAGGCCCGTAAGCGAAACGCCTCCTGGCGTTTCGCTTACGGGCCTCACAC | 528 |
| GAGGCCCGAAAGCGAATCGCCTCCTGGCGATTCGCTTTCGGGCCTCACAC | 490 |
| GAGGCCCGAAAGTGACGCGCCTCCTGGCGCGTCACTTTCGGGCCTCACAC (5mC at 16 30) | 520 |
| GAGGCCTGAAAGCGAAACGCCTCCTGGCGTTTCGCTTTCAGGCCTCACAC | 1160 |
| GAGGCCCGAAAGCGAACGGCCTCCTGGCCGTTCGCTTTCGGGCCTCACAC | 534 |
| GAGGCCCCGAAGCGAAACGCCTCCTGGCGTTTCGCTTCGGGGCCTCACAC (5mC at 38) | 574 |

Set 2 — method: RNAcompete; molecule type: RNA; matrix: in vitro; concentration: 20 nM; notes: 7-mer, probes averaged, single round; relative to: mean of 7-mers; direction: higher = stronger binding
Target: PABPC1L2, full length, GST fusion (mouse, UniProt A0ABA7IW68)
Target sequence (chain): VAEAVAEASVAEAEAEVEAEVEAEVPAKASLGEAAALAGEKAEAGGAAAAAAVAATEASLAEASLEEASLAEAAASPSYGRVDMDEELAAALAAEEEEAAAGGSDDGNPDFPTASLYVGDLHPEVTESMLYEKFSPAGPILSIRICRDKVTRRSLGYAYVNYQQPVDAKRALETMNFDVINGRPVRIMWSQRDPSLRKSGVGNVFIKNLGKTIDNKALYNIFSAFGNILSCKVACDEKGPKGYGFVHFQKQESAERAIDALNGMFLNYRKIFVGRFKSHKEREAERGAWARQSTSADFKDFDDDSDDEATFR
| Sequence | 7-mer Z-score |
| --- | --- |
| UACCGUC | -0.295 |
| CAUACGG | -0.0573 |
| AGGCUGU | -0.0718 |
| UAGGUCA | -0.0736 |
| GCAUGCC | -0.0156 |
| CCGCAGG | -0.155 |
| GCACUGG | 0.1 |
| CAUGUGA | -0.021 |
| CAGCCAC | 0.0623 |
| CGUUGUC | -0.49 |
| CGAAGCG | 0.00254 |
| ACGGGGC | 0.135 |
| UUCGUCG | -0.51 |
| UUUGCGG | -0.347 |
| CGGUGGC | -0.13 |
| UACGCCG | -0.342 |
| UCGUGGA | -0.0772 |
| CACCCUU | -0.173 |
| UUUCUCG | -0.418 |
| UUUGUUU | -0.438 |
| AAUUGCC | 0.225 |
| AAAUUCA | 1.35 |

Set 3 — method: RNA Bind-n-Seq; molecule type: RNA; matrix: in vitro; concentration: 365 nM; relative to: no-protein control; direction: higher = stronger binding
Target: RNA binding protein fox-1 homolog 2, RRM domain, GST-SBP tag (RBFOX2, Homo sapiens, UniProt O43251-10, residues 100-194)
Notes: natural RNA segment, single round, ends assumed
All sequences stand within: GGGAGUUCUACAGUCCGACGAUC … UGGAAUUCUCGGGUGCCAA
Target sequence (chain): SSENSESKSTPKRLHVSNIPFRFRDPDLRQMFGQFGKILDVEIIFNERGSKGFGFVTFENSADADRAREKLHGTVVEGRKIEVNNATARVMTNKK
| Sequence | RBNS enrichment (R) |
| --- | --- |
| CCGCUGGAGGAGGCUUUGGUGCAUGUUGCUGUGAAGUCCUUCCGUGUGGCCACCCAGCCAGCUGGAGCAGCACUGUGCCGUGUGUGUGUGUGUGUGUGUGUGUGUGUGUG | 7.97 |
| CUUCAUAGCUCCGCCCCAGUUGUGGCAGGAGACAUUCGAACAGACGUUUAGACGUUUAGAGUCCUCUUGGAAAAUAGGGCCGUGCGGGAACGGUUAUGAUUGCCAGCGUU | 0.603 |
| CAUCCUGGCGAUUAUCAACAACAUGCAGCAGUGUGGCGCCAGGCUCUGCAGGGUGGGCCUGAUCCCAGAGUGGUGCUUACUGUGCUGACUGUGUACUUAUCUUCCCCAAG | 0.446 |
| AACCAGCUAGUUAGAAAACCAUUUAUUUUUCUUUCUUCUUUCCCCACUUGUUAGAGGUAGGGCUAUGAGGAAGCAAGGAUGGGAGGUGGGGUUGAGGUUUGGGAAGCAGG | 1.29 |
| GGAAGAUACCGAUAAAUAACAUGGUUUAAGUGUCAAUAAAAUUCAUUCGAAGAGAUCAGGCGCGGUGGCUCACGCCUGUAAUCCCAGCAUUUUGGGAGGCUGAGGCAGGU | 0.63 |
| CUGUUUUUAUUUUUCUUAGAAAUGAGAGACACUGGCAGUCAUAACUGUACUAGUUACUAUGAACAUGAAAAAAUAAUUAUCUUAGACUAUUUUAGAAGUAGGGUGUGAAC | 0.531 |
| AGGCUAGUUGGUCCUCUUUGAGGAAGCAUAUAGUACAGACUUCUUAGCACUUAGGAAGCUUCUCCAACCUGUGCUCUAGGUCAGUAAAACUUCGUCCUCUGAAAUGCUUU | 0.535 |
| CAUUUUUGGCUUACUCAUGGACAAAGUUCUGUAUAUAGUAUAAAGUCAUUAACAAGAAACAGGAUAUGCUUUAAGACAGAAUUCACUGUCUGUUGCUUCAGUAAAAGGAC | 0.332 |
| AAAUUUGUUUUGUUUUGUUUUGUUAUUUUUUAGGGAACUCUUUUGCAAAAGCAAUGGUCGGAUGUAAAUAACAUUUAAAGUAUAGUGCACAUAACUUCCCCGGACUGUUC | 1.81 |
| GGCAAUCUAUGACUCACCUUGCUCUGCCAUCCCUGGCAGCCCCCACCGGUGUCCUGUUCCUGCCACAUGGAGCUUGACUUCAUGCCAGCUAUAAUCUCCCCUGCCUUCCU | 0.277 |
| ACUGCUUUUGAUCUUCUGAUUCCUCUUGGGUUGACGCAGACCAAGUCCCGUCCUAGGCACCCAGUUUGGGGGGAGCCUGUAUUUUUUUUUUUAACGACACCCCUACUCCG | 0.44 |
| UUUACACGGCUUAUGGUGGAUGAGGACAAAAACUUUGGAAUAGCAAGCUAACACUGAAAAAAAAAAUGACAAAUUAAUGUGUCCUAUUAUCCAGGCUACAUCAGGAGGUU | 0.674 |

Set 4 — method: competition protein-binding microarray; molecule type: double-stranded DNA, one strand shown; matrix: in vitro; concentration: 2 µM; with: Pho4 competitor, 0.05 µM; direction: higher = stronger binding; all sequences stand within: … GTCTTGATTCGCTTGACGCTGCTG
Target: Centromere-binding protein 1, full length, His-tagged (CBF1, Saccharomyces cerevisiae, UniProt P17106, residues 1-351)
Sequence of UniProt P17106 (whole entry, looked up): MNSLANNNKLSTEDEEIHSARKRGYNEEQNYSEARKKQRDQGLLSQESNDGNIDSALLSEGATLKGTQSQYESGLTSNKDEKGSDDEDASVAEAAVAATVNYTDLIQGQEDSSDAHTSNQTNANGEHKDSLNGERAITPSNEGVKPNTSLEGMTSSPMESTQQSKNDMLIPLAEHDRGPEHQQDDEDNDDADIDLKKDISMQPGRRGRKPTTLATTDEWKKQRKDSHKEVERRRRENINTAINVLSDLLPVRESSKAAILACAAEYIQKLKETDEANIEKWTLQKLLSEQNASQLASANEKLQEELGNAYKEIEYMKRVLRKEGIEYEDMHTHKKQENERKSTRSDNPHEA
Notes: whole 60-bp probe, lowest competitor level
| Sequence | fluorescence intensity |
| --- | --- |
| GTCTTGTCTCATTGATCCGTGGGTGTCCCCACTTCA | 67.5 a.u. |
| CGGGGTTAAGTTTTTCACGTGGCCTGCTTGCAGCAG | 670 a.u. |
| CTTCTGTAAATTTGCGACGTGGGTGGACGCGCCCCG | 68.5 a.u. |
| ATCTTCTGGCCGAGTCACGGGCCAAGCGTAAGGGTG | 329 a.u. |
| AGCTTGGGGTGCTTGGGCGTGCGATGCTCGAGGCAT | 54.8 a.u. |
| GCATTTGGTGAGATACACGTGCCAGTTGATAAGTAC | 1740 a.u. |
| GATCCGTCTACGACTCCCGTGGTGAGCCAACCGTCG | 64.6 a.u. |
| CACTCCCGCAGTCCTGGCGTGATGGGCCACTGCAGT | 59 a.u. |
| CGGCTCCCGCTCGGCCTCGTGACTCCCGCGGAGACC | 462 a.u. |
| TTATTTATAAAAGGACACGGGAGGGGGAATCCCGTC | 117 a.u. |
| AAAGCGGTAATTTTTCACGTGAGCTCACATATCTAT | 1210 a.u. |
| GGAGACGAAGGATGGGGCGTGCTGTCATTAGAGGTA | 73.1 a.u. |
| TGATTATACTTTACCCACGCACATCAAACGCATACC | 85.7 a.u. |
| AAAGCGGTAATTTGTCACCTTACTTCACATATCTAT | 89.1 a.u. |
| CTTTCCCGATCTTGCCTGGTGGGTGTAGCACATTTG | 85.2 a.u. |
| TGGCCGTATCGCTCCATACGAGCCAATCAGGGCCCC | 46.8 a.u. |
| AAATTACTAAGTTGTAAAGTGGGTGACGCCGTATGA | 70.7 a.u. |
| TGCGCAACAACTTGTCACCGAACTTTATGTCTAGAA | 66.8 a.u. |
| ACCTCTTCCATGTCCCACGTAATGGCAATTGGCATA | 69.9 a.u. |
| CGGGGTTAAGTTTTTCACGTGGGATGCTTGCAGCAG | 390 a.u. |
| GCAGATAGACGCTCGCCCGTGAGCCACTCAGGACGC | 58.5 a.u. |
| CTTTCCCGATCTTTTCACGTGCGCTTAGCACATTTG | 963 a.u. |
| CAAGGATACTAGAACCATGTGAGAATCGGTACCGTT | 96.8 a.u. |
| CTCCTGGCTGCCTGCCTCGTGGTGGTCAATTCGCTG | 93 a.u. |
| TAGCATCATTTTCGTCACGTGCAAAATCTGCCAGTA | 6510 a.u. |
